Published values gathered from unrelated publications.
Numbers after ± are the reported error.

For COC(=O)C1=CO[C@@H](O)[C@@H]2C(Cn3cc(CON4C(=O)c5ccccc5C4=O)nn3)=CC[C@H]12, the viability was 70.9 ± 1.3% (SK-N-SH; neuroprotection, MTT; 0.15 µM, 24 h, with: 250 µM H2O2).
CC1CN1c1cc(O)c2nc(N)sc2c1 (stereo not drawn): H3K36 methylation “no effect” (HM-2 mouse cells; western blot; concentration not given, 8 days).
Under “number of down-regulated transcripts”, CN1C(=O)C2(Cc3ccc(CC45SSC(CO)(C(=O)N4C)N(C)C5=O)cc3)SSC1(CO)C(=O)N2C (racemic) is recorded as 6 (MCF7 cells; microarray; 600 nM, fold change at least 4.0, with: DFO 300 µM; relative to: DFO alone).
CC(C)C[C@H](NC(=O)[C@H](CO)NC(=O)[C@H](Cc1c[nH]c2ccccc12)NC(=O)[C@H](Cc1ccccc1)NC(=O)[C@H](Cc1ccccc1)NC(=O)[C@H](CCC(N)=O)NC(=O)[C@@H]1CCCN1C(=O)[C@H](CCCNC(=N)N)NC(=O)[C@H](CCCNC(=N)N)NC(=O)[C@H](CCCNC(=N)N)NC(=O)[C@H](CCC(N)=O)NC(=O)[C@H](CCCNC(=N)N)NC(=O)[C@H](CCCNC(=N)N)NC(=O)[C@H](CCCCN)NC(=O)[C@H](CCCCN)NC(=O)[C@H](CCCNC(=N)N)NC(=O)CNC(=O)[C@@H](N)Cc1ccc(O)cc1)C(=O)N[C@@H](CS)C(=O)N[C@H](C(=O)N[C@@H](C)C(=O)O)[C@@H](C)O: “trypan blue-negative cells” 21.8% (Jurkat; 20 µM, 15 min).
With CC/C=C\C/C=C\C/C=C\C/C=C\C/C=C\C/C=C\CCC(=O)Nc1ccn(C2OC(CO)C(O)C2(F)F)c(=O)n1 (stereo not drawn) the CC50 was 43 µM (UACC-62; NCI60 screen).
For COC(=O)C1=CO[C@@H](OC(C)=O)[C@@H]2C(Cn3cc(COCc4ccc(OC)cc4)nn3)=CC[C@H]12, the viability was 62.7 ± 0.3% (SK-N-SH; neuroprotection, MTT; 0.075 µM, 24 h, with: 250 µM H2O2).
The cell survival of O=c1c(NCCc2ccccc2)c(NC2CCN(Cc3ccccc3)CC2)c1=O is reported as 58.1% (SH-SY5Y; neuroprotection, MTT; 12.5 µM, 24 h pretreatment, with: H2O2 650 µM for 4 h).
With CN(C)C1=[S+][Au-]2([S]1)[c]1ccccc1P(c1ccccc1)(c1ccccc1)=[N+]2c1ccccc1.F[P-](F)(F)(F)(F)F (stereo not drawn) the cell death was about 100% (Jurkat; annexin V flow cytometry; 0.5 µM, 24 h).
COC(=O)C1=CO[C@@H](O)[C@@H]2C(Cn3cc(C(O)(c4ccccc4)c4ccccc4)nn3)=CC[C@H]12 has a viability of 72.7 ± 2.6% (SK-N-SH; neuroprotection, MTT; 0.3 µM, 24 h, with: 250 µM H2O2).
With C1=CCCC=CCC1.C1=CCCC=CCC1.O=C(N=P12CN3CN(CN(C3)C1)C2)c1cccc[c]1[Pt+].O=C(N=P12CN3CN(CN(C3)C1)C2)c1cccc[c]1[Pt+].[Cl][Hg-]([Cl])[Cl].[Cl][Hg-]([Cl])[Cl].[Cl][Hg][Cl].[Cl][Hg][Cl] the cell death was 25% (Jurkat; annexin V flow cytometry; 10 µM, 24 h, with: z-VAD-fmk 50 µM; relative to: total cells).
The internalization of CSCC[C@H](NC(=O)[C@H](CC(C)C)NC(=O)[C@H](Cc1c[nH]cn1)NC(=O)CNC(=O)[C@@H](NC(=O)[C@H](C)NC(=O)[C@H](Cc1c[nH]c2ccccc12)NC(=O)[C@H](CCC(N)=O)NC(=O)CCCCCCCNC(=O)CCC(=O)Nc1ccc(CNC23CNCCNCC(N)(CNCCNC2)CNCCNC3)cc1)C(C)C)C(N)=O [copper-64 labelled] is reported as 54% (PC-3; 15 min; relative to: internalization at 2 h).
For c1ccc2nc(Nc3c4c(nc5ccccc35)CCCC4)ccc2c1, the viability was 62.8 ± 3.37% (SH-SY5Y; MTT; 50 µM, 1 h pretreatment, 10% FBS, with: H2O2).
COc1cc(C)cc2c1OCO2 has a GI50 of over 250 µM (SK-OV-3; cell growth or viability, MTT; 72 h).
For COC(=O)C1=CO[C@@H](O)[C@@H]2C(Cn3cc(C4(O)CCCCC4)nn3)=CC[C@H]12, the viability was 77.3% (SK-N-SH; neuroprotection, MTT; 0.15 µM, 24 h, with: 250 µM H2O2).
N=C(N)Nc1ccc(-c2nc3ccc(-c4ccc5nc(-c6ccc(NC(=N)N)cc6)[nH]c5c4)cc3[nH]2)cc1: “lowest effective concentration” 1 µM (sample A patient myotubes; refers to: MBNL1 exon 5 splicing; significant improvement).

Excerpt of the above:
For c1ccc2nc(Nc3c4c(nc5ccccc35)CCCC4)ccc2c1, the viability was 62.8 ± 3.37% (SH-SY5Y; MTT; 50 µM, 1 h pretreatment, 10% FBS, with: H2O2).
COc1cc(C)cc2c1OCO2 has a GI50 of over 250 µM (SK-OV-3; cell growth or viability, MTT; 72 h).
For COC(=O)C1=CO[C@@H](O)[C@@H]2C(Cn3cc(C4(O)CCCCC4)nn3)=CC[C@H]12, the viability was 77.3% (SK-N-SH; neuroprotection, MTT; 0.15 µM, 24 h, with: 250 µM H2O2).
